{"data": "Experimental data pooled from the literature"}
{"Structure (SMILES)": "CN[C@@H]1COc2c(S(=O)(=O)NC(=O)Nc3c4c(cc5c3CCC5)CCC4)cnn2C1", "test system": "human, urine", "setting": "oral, 900 mg twice daily, 0-12 h, day 7", "quantity": "amount excreted in urine", "value": "111 mg"}
{"Structure (SMILES)": "CC(C)(Sc1ccncc1-c1ccc(C#N)c2ccccc12)C(=O)O", "test system": "human, urine", "setting": "oral, 5 mg, with: febuxostat 40 mg", "quantity": "amount excreted in urine (0-24 h)", "value": "83.3 µg"}
{"Structure (SMILES)": "CN(C(=O)C(C)(C)c1cc(C(F)(F)F)cc(C(F)(F)F)c1)c1cnc(N2C[C@H]3COCCN3C[C@H]2CO)cc1-c1ccc(F)cc1[14CH3]", "test system": "healthy male human", "setting": "oral, 120 mg, up to 480 h cumulative", "how to read": "reference: dose", "quantity": "amount excreted in faeces", "value": "50.5%"}
{"Structure (SMILES)": "Cn1cc(-c2cn3nccc3c(-c3cnn([C@]4(CC#N)C[C@@H](C#N)C4)c3)n2)cn1", "test system": "human, urine", "setting": "oral, 1200 mg once daily, day 10, dosing interval geometric mean", "quantity": "amount excreted unchanged in urine", "value": "14.7 mg"}
{"Structure (SMILES)": "Oc1ccc([C@@H](O)c2cc(-c3ncnc4cc(N5CCOCC5)ccc34)c(F)cc2Cl)nn1", "test system": "healthy human volunteers, urine", "setting": "0-24 h, fasted oral solution, geometric mean", "how to read": "reference: dose", "quantity": "amount excreted in urine", "value": "6.32%"}
{"Structure (SMILES)": "NCCONC(=O)[C@@H]1CC[C@@H]2CN1C(=O)N2OS(=O)(=O)O", "test system": "human male, urine", "setting": "intravenous infusion, 2 g multiple doses, day 9", "quantity": "amount excreted in urine (0-24 h)", "value": "1.74e+06 µg"}
{"Structure (SMILES)": "CC(C)n1c(C2CCNCC2)nc2c([N+](=O)[O-])c(Br)c(Br)cc21", "test system": "human, urine", "setting": "oral, 125 mg, 0-24 h, median, single dose", "quantity": "amount excreted in urine", "value": "1.11 mg"}
{"Structure (SMILES)": "C=CC(=O)Nc1cc(Nc2ncc(C(=O)OC(C)C)c(-c3cn(C)c4ccccc34)n2)c(OC)cc1N(C)CCN(C)C", "test system": "healthy human, urine", "setting": "oral, 80 mg single dose, 0-48 h, arithmetic mean", "quantity": "amount excreted in urine", "value": "0.59 mg"}
{"Structure (SMILES)": "Cl.O=C(NC1CCOCC1)c1csc([C@@H]2C[C@H]2NCC2CC2)c1", "test system": "human, fed, urine", "setting": "oral, 30 mg single dose", "quantity": "amount excreted in urine", "value": "5.89 mg"}
{"Structure (SMILES)": "CC(=O)N(C)[C@H]1CCN(C(=O)c2cnc3c(c2)C[C@](C)(c2ccc(F)cc2)N3)C1", "test system": "healthy male human, urine", "setting": "oral, 15 mg once daily, 0-48 h steady state, geometric mean", "quantity": "amount excreted in urine", "value": "19300 nmol"}
{"note": "For quick reference, copied from above:"}
{"Structure (SMILES)": "CN[C@@H]1COc2c(S(=O)(=O)NC(=O)Nc3c4c(cc5c3CCC5)CCC4)cnn2C1", "test system": "human, urine", "setting": "oral, 900 mg twice daily, 0-12 h, day 7", "quantity": "amount excreted in urine", "value": "111 mg"}
